Measurements pooled from the literature.
Parts stem from different laboratories: compare values within a part only.
UniProt O43283, sequence (whole entry, looked up): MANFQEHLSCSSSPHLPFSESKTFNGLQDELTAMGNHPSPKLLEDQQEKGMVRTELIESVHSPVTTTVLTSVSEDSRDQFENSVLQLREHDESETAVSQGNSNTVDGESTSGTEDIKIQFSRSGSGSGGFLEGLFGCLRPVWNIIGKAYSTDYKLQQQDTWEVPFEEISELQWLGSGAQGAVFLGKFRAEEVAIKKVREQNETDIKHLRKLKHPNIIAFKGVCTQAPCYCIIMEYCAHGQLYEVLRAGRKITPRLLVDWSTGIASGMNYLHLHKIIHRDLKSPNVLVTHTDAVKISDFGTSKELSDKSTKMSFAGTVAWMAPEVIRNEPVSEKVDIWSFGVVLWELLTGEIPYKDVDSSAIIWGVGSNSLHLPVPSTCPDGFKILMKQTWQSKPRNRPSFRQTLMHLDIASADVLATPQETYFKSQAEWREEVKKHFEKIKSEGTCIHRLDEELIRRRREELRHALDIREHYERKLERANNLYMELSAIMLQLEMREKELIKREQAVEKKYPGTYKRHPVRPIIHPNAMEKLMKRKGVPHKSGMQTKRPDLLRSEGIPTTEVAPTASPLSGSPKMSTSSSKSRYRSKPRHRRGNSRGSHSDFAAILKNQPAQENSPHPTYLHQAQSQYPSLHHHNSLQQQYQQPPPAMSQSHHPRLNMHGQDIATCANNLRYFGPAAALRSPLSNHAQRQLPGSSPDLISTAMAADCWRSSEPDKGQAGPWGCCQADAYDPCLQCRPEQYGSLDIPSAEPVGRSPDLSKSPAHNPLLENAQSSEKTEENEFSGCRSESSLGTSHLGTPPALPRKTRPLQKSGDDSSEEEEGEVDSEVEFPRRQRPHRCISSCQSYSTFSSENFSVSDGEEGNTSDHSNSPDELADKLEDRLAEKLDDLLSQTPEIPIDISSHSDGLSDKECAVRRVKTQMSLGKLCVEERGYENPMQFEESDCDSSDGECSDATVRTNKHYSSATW
UniProt Q9BVS4, sequence (whole entry, looked up): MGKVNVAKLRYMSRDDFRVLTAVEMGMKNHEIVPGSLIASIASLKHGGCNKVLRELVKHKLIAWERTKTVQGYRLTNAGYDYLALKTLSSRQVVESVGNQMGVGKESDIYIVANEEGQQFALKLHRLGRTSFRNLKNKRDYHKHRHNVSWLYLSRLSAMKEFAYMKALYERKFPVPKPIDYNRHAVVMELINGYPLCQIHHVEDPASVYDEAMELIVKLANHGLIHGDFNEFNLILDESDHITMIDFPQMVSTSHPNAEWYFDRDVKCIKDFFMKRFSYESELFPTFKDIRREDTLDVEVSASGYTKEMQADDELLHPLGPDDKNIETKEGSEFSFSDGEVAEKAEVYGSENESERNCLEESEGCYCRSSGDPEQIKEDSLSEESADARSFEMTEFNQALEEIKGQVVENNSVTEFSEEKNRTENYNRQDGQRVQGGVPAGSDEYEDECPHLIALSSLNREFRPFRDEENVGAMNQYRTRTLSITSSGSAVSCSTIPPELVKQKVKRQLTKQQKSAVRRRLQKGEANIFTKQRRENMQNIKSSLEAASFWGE
UniProt Q15831, sequence (whole entry, looked up): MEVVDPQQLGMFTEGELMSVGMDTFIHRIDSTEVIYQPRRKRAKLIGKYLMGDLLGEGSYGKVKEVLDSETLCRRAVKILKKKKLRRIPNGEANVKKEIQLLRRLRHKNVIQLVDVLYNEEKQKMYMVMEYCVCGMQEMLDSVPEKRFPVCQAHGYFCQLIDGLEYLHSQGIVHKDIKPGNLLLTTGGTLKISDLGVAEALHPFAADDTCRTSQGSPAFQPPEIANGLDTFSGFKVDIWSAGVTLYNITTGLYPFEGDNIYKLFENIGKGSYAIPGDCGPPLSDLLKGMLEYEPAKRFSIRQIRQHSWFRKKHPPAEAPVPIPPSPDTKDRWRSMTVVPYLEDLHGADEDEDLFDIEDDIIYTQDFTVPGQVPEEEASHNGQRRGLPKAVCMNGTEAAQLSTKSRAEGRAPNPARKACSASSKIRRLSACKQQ
UniProt Q00536, sequence (whole entry, looked up): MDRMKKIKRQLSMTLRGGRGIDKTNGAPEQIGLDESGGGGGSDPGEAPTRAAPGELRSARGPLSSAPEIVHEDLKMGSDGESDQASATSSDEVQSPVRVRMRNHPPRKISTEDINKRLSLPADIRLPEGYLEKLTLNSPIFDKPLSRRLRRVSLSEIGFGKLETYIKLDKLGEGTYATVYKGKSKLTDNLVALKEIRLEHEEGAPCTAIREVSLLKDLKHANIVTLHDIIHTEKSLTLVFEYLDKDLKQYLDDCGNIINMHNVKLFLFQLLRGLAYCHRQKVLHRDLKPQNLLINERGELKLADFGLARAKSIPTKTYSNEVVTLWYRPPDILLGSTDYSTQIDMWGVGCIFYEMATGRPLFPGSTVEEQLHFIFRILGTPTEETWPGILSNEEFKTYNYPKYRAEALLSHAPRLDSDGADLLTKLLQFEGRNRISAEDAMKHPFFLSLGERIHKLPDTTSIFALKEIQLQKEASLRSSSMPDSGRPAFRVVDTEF
UniProt Q9UHD2, sequence (whole entry, looked up): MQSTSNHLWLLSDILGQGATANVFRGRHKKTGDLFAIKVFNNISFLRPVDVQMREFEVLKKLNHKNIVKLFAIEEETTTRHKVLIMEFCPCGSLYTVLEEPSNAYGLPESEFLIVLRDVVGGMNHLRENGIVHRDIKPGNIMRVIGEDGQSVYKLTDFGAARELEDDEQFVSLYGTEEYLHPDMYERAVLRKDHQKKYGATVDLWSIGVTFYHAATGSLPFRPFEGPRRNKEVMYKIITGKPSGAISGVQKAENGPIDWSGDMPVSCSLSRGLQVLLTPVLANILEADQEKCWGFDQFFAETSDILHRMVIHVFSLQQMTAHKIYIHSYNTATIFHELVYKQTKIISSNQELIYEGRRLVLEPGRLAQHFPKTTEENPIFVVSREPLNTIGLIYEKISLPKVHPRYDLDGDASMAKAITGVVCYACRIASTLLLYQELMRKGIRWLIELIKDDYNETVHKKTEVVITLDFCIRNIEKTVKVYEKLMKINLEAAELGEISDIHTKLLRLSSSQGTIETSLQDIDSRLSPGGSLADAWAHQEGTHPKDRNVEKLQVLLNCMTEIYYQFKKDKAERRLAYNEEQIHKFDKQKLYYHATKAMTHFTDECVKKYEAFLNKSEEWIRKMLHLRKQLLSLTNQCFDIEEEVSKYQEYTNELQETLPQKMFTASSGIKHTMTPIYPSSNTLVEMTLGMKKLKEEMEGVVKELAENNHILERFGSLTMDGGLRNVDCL

Block 1
Structure (SMILES): C[C@@H]1CN(c2cc(-c3n[nH]c4ccc(OC5(C)CC5)cc34)ncn2)C[C@H](C)O1
Technique: competition with immobilised ligand
Quantity: remaining binding
target = Mitogen-activated protein kinase kinase kinase 13 (MAP3K13, Homo sapiens, UniProt O43283); test = binding; setting = 1 µM; result = 0%
target = Epidermal growth factor receptor (EGFR, Homo sapiens, UniProt P00533, L861Q); test = cell-free assay; setting = 0.1 µM; result = 50%
target = Serine/threonine-protein kinase TBK1 (TBK1, Homo sapiens, UniProt Q9UHD2); test = cell-free assay; setting = 0.1 µM; result = 68%
target = Cyclin-dependent kinase 16 (CDK16, Homo sapiens, UniProt Q00536); test = cell-free assay; setting = 0.1 µM; result = 85%
target = Serine/threonine-protein kinase STK11 (STK11, Homo sapiens, UniProt Q15831); test = cell-free assay; setting = 0.1 µM; result = 83%
target = Serine/threonine-protein kinase RIO2 (RIOK2, Homo sapiens, UniProt Q9BVS4); test = cell-free assay; setting = 0.1 µM; result = 68%

Block 2
Target: Tyrosine-protein kinase Lyn, isoform B (LYN, Homo sapiens, UniProt P07948)
UniProt P07948, sequence (whole entry, looked up): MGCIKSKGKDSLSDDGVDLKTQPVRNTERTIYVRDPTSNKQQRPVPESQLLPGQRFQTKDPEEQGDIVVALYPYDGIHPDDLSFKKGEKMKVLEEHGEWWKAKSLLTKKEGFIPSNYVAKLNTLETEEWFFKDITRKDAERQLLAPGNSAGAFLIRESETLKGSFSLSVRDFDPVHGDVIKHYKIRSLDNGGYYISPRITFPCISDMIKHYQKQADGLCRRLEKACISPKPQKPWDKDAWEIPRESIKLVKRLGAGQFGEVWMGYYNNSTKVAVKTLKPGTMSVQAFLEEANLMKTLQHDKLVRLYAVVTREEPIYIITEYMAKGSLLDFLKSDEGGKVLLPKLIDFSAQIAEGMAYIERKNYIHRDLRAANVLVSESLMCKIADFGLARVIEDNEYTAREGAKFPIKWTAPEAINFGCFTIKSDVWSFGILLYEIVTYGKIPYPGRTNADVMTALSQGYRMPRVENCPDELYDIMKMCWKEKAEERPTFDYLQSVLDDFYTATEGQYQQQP
Observed: enzyme activity
Mode: inhibitor
Tested at: 0.5 µM
Reference: control
Quantity: remaining activity
SMILES = Nc1ccc2ncnc(NCCc3ccc(Oc4ccccc4)cc3)c2c1; result = 101%
SMILES = COc1cc2nccc(Oc3ccc(NC(=S)NC(=O)c4ccccc4C)cc3)c2cc1OC; result = 31.8%
SMILES = O=S(=O)(c1cccc2cnccc12)N1CCCNCC1; result = 102%
SMILES = CNC(=O)c1cc(Oc2ccc(NC(=O)Nc3ccc(Cl)c(C(F)(F)F)c3)cc2)ccn1; result = 98.8%
SMILES = NCCNc1ncc(C(N)=O)c(Nc2cccc(C(F)(F)F)c2)n1; result = 81.9%
SMILES = COc1cc2ncnc(Nc3ccc(Oc4ccccc4)cc3)c2cc1OC; result = 42.6%
SMILES = CC(C)[C@H](CO)Nc1nc(Nc2cc(N)cc(Cl)c2)c2ncn(C(C)C)c2n1; result = 85.7%
SMILES = N#CCCc1ccc2c(c1)-c1[nH]c3ccc([N+](=O)[O-])cc3c1CC(=O)N2; result = 77.7%
SMILES = COc1cc2ncnc(Nc3ccc(F)c(Cl)c3)c2cc1OCCCN1CCOCC1; result = 67.8%
SMILES = O=C(CCCc1ccc(-c2ccccc2F)cc1)Nc1ccc(O)cc1; result = 87.7%
SMILES = OCC(O)CCON=C1C(c2c(O)[nH]c3ccccc23)=Nc2ccccc21 (centres unmarked); result = 45.5%
SMILES = Cc1ccc(Nc2nccc(N(C)c3ccc4c(C)n(C)nc4c3)n2)cc1S(N)(=O)=O; result = 58.9%
SMILES = Cc1nc(-c2ccccc2)c(-c2ccncc2)o1; result = 104%
SMILES = CN(C)c1ccc(C=C2C(=O)Nc3ccccc32)cc1; result = 97.8%
SMILES = N#CC(C#N)=C(N)/C(C#N)=C/c1ccc(O)cc1; result = 102%
SMILES = O=C1NC(=O)C(c2cn(CCCO)c3ncccc23)=C1c1cnccn1; result = 101%
SMILES = O=C1NC(=O)C(c2cn(CCCn3ccnc3)c3ccccc23)=C1Nc1ccccc1; result = 103%

Block 3
SMILES: COc1ccc(-c2c(Nc3ccccn3)[nH]c3c(C4=CCCCC4)c(-c4ccccc4)nn3c2=O)cc1
Technique: LC-MS/MS
Host: human cancer patients
Sample: plasma
Quantity: plasma concentration
test = refers to: S-adenosylmethionine; setting = 50 mg QD, 4 h, mean, cycle 1 day 50; result = 22.1 ng/mL
test = refers to: methionine; setting = 200 mg BID, 0 h, geometric mean, cycle 1 day 200; result = 66000 ng/mL
test = refers to: methionine; setting = QD, dose not given, 4 h, geometric mean, cycle 1 day 50; result = 59300 ng/mL
test = refers to: methionine; setting = 200 mg BID, 8 h, median, cycle 1 day 200; result = 94000 ng/mL
test = refers to: methionine; setting = 200 mg BID, 2 h, geometric mean, cycle 1 day 200; result = 66300 ng/mL
test = refers to: S-adenosylmethionine; setting = 200 mg BID, 4 h, mean, cycle 1 day 200; result = 11.5 ng/mL

Block 4
Cell line: Huh-7
Tested at: 10 µM
Time: 24 h
Quantity: viability
SMILES = C[C@H]1O[C@H](O[C@H]2[C@H](O)[C@@H](O)[C@@H](O[C@H]3[C@H](O)[C@@H](O)C(O)O[C@@H]3CO)O[C@@H]2CO)[C@H](O)[C@@H](O)[C@@H]1N[C@H]1C=C(CO)[C@@H](O)[C@H](O)[C@H]1O (some centres unmarked); result = 99.6%
SMILES = CN1Cc2c(N)cccc2C(c2ccccc2)C1 (centres unmarked); result = 96.2%
SMILES = CCCCC1C(=O)N(c2ccccc2)N(c2ccc(O)cc2)C1=O (centres unmarked); result = 84.9%
SMILES = CC(C)[C@H](N)C(=O)OCCOCn1cnc2c(=O)[nH]c(N)nc21; result = 97.6%
SMILES = CO[C@H]1C[C@@H]2CC[C@@H](C)[C@@](O)(O2)C(=O)C(=O)N2CCCC[C@H]2C(=O)O[C@H]([C@H](C)C[C@@H]2CC[C@@H](O)[C@H](OC)C2)CC(=O)[C@H](C)/C=C(\C)[C@@H](O)[C@@H](OC)C(=O)[C@H](C)C[C@H](C)/C=C/C=C/C=C/1C; result = 87.5%
SMILES = Clc1ccc(C(Cn2ccnc2)OCc2ccsc2Cl)c(Cl)c1 (centres unmarked); result = 81.7%

Some of these lines once more (block 2):
SMILES = CN(C)c1ccc(C=C2C(=O)Nc3ccccc32)cc1; result = 97.8%
SMILES = N#CC(C#N)=C(N)/C(C#N)=C/c1ccc(O)cc1; result = 102%
